Measurements pooled from the literature.
A part holds a random share of what one study measured.

Series 1 — technique: RNA Bind-n-Seq; molecule type: RNA; matrix: in vitro; concentration: 200 nM; notes: whole 134-nt RNA, ends assumed; together with: 150 mM LiCl; baseline: input library; direction: higher = stronger binding; all molecules: 7-deaza-guanosine replaces G
Target: Fragile X messenger ribonucleoprotein 1, C-terminal low-complexity region (Fmr1, Mus musculus, UniProt P35922)
Constant ends, left off below: GGGAGUUCUACAGUCCGACGAUC … UGGAAUUCUCGGGUGUCAAGG
The log2 enrichment of `ACCAUGCAGGUGGGCAUCUUUGGGAAGUGGGGCAAGGGGGGGAUAGGGAGGGGGGUAACAAUUUGGGAACAGGUGGUCCCAGGUCGUUUC` is reported as 0.992.
`CAAGUCCUGUGCUACACAUCGUAUGUACCGAAUCGGAAAGGGAAAGGGGAAAGGGGAAAGUAUUAUGUUACGCCGUUCGGAUCUGCACUU` gave a log2 enrichment of -0.327.
`UGCCUCCCUGCUGCAGAAAUACACCGACAACAGCGAGAAGCCAUCCGGGAAGAGACUGUGCAAAACCAAACACUUGAUCCCUCAGGAGUC` gave a log2 enrichment of -0.881.
The log2 enrichment of `AAGUCCUGUGCUACACAUCGUAUGUACCGAAUCGGGGUGGGGUUUUUGGGGAGGGGAAAGUAUUAUGUUACGCCGUUCGGAUCUGCACUU` is reported as -0.109.
`AAGUCCUGUGCUACACAUCGUAUGUACCGAAUCGGGGUUUUUGGGGUGGGGAGGGGAAAGUAUUAUGUUACGCCGUUCGGAUCUGCACUU` has a log2 enrichment of -0.17.
`CAAGUCCUGUGCUACACAUCGUAUGUACCGAAUCGGUUUUGGGUUUUGGUUUUGGGAAAGUAUUAUGUUACGCCGUUCGGAUCUGCACUU` has a log2 enrichment of -1.69.
`AGUCCUGUGCUACACAUCGUAUGUACCGAAUCGGUUUUUGGUUUUUGGGUUUUUGGGGAAAGUAUUAUGUUACGCCGUUCGGAUCUGCAC` gave a log2 enrichment of -0.866.
`UUUGGUUAUGAACAGGAUUCGGAUUCACGUCUUGCCAACCAAUCGGGGGAGGAUCACUCCAGUGCCCAGGUCUCAGGAACCUCUGUCUUG` gave a log2 enrichment of 0.0833.
`CUCAAGUCCUGUGCUACACAUCGUAUGUACCGAAUCGGAGGUUUUUUUGGUGGAAAGUAUUAUGUUACGCCGUUCGGAUCUGCACUUCCA` gave a log2 enrichment of -0.787.
`AAGUCCUGUGCUACACAUCGUAUGUACCGAAUCGGAAAAAGGAAAAAGGGAAAAAGGAAAGUAUUAUGUUACGCCGUUCGGAUCUGCACU` has a log2 enrichment of -0.729.
For `CUGUGCUACACAUCGUAUGUACCGAAUCGGAAAAAAAGGAAAAAAAGGGGAAAAAAAGGGGAAAGUAUUAUGUUACGCCGUUCGGAUCUG`, the log2 enrichment was -0.244.

Series 2 — technique: protein binding microarray; molecule type: double-stranded DNA, one strand shown; matrix: in vitro; concentration: not given; baseline: not given; direction: higher = stronger binding
Target: Histone acetyltransferase KAT6A, winged helix 1, GST fusion (KAT6A, Homo sapiens, UniProt Q92794, residues 1-85)
Notes: 8-mer, flanks averaged, mean of 2 arrays, mostly near background
Residues (chain): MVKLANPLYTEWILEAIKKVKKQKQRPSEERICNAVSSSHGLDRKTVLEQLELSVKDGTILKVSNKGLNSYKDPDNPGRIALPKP
For `ACGAATCC`, the E-score was -0.0943.
With `AAATACAG` the E-score was -0.236.
`CGCATGGA` has an E-score of 0.0177.
For `CCAGTTAA`, the E-score was -0.187.
The E-score of `ACAAACGT` is reported as -0.139.
For `ATCTGTAC`, the E-score was -0.00911.
For `GGCGACAC`, the E-score was 0.332.
For `GACCATGC`, the E-score was 0.11.
`GAGGCCCC` has an E-score of -0.0413.
For `GGCACGCA`, the E-score was 0.118.
With `ATGTTCCA` the E-score was -0.146.
`TGATCGAA` gave an E-score of -0.116.
`AATAAATA` gave an E-score of -0.113.
`ACGGCGGC` gave an E-score of 0.463.
The E-score of `TCACCCAA` is reported as -0.303.
With `GATCAGCC` the E-score was -0.123.
`ATGGTTCA` has an E-score of -0.135.

Series 3 — technique: RNAcompete; molecule type: RNA; matrix: in vitro; concentration: 20 nM; notes: 7-mer, probes averaged, single round; baseline: mean of 7-mers; direction: higher = stronger binding
Target: PABPC1L2, full length, GST fusion (mouse, UniProt A0ABA7IW68)
Target sequence (chain): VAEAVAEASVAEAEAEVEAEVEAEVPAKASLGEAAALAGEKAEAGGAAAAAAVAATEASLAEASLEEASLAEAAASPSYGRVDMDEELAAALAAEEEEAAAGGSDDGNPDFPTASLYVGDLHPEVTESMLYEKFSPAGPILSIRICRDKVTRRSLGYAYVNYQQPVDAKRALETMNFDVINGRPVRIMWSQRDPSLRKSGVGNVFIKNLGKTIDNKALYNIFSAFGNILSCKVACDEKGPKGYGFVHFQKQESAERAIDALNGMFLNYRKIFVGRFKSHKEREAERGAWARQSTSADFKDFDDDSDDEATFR
With `GAAACUU` the 7-mer Z-score was 0.361.
`GGUGACG` has a 7-mer Z-score of -0.0337.
`GGACACC` has a 7-mer Z-score of 0.0696.
The 7-mer Z-score of `UUUCGCG` is reported as -0.454.
`UCCGCUC` gave a 7-mer Z-score of -0.46.
The 7-mer Z-score of `UGGUGCU` is reported as -0.266.
`ACUUAAA` gave a 7-mer Z-score of 0.782.
For `GUAGUUC`, the 7-mer Z-score was -0.311.
With `GGGAAGC` the 7-mer Z-score was 0.0497.
`UAAGUAC` has a 7-mer Z-score of -0.115.
The 7-mer Z-score of `UCGAUCC` is reported as -0.407.
With `UAGUCGA` the 7-mer Z-score was -0.226.
With `CACUGCC` the 7-mer Z-score was -0.235.
The 7-mer Z-score of `UGAUAAU` is reported as -0.0681.
`AACCAUA` has a 7-mer Z-score of 0.245.
`GGCAGUU` gave a 7-mer Z-score of 0.117.
With `CAUUGAC` the 7-mer Z-score was -0.126.
`CACUCGA` has a 7-mer Z-score of -0.204.
`CAAGGGU` gave a 7-mer Z-score of 0.182.
For `AAGGCUG`, the 7-mer Z-score was 0.35.
`UUGUAGU` has a 7-mer Z-score of -0.286.
`GAUUCAG` gave a 7-mer Z-score of -0.135.
`AGCCUAA` has a 7-mer Z-score of -0.166.
`CAAAUUC` has a 7-mer Z-score of 0.0279.
With `UCAUGAC` the 7-mer Z-score was -0.113.

Series 4 — technique: RNA Bind-n-Seq; molecule type: RNA; matrix: in vitro; concentration: 365 nM; baseline: no-protein control; direction: higher = stronger binding
Target: RNA binding protein fox-1 homolog 2, RRM domain, GST-SBP tag (RBFOX2, Homo sapiens, UniProt O43251-10, residues 100-194)
Notes: natural RNA segment, single round, ends assumed
Constant ends, left off below: GGGAGUUCUACAGUCCGACGAUC … UGGAAUUCUCGGGUGCCAA
Residues (chain): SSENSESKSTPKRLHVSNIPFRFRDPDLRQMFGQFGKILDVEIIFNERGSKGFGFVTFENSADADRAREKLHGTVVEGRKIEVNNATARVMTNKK
Under “RBNS enrichment (R)”, `ACCCCAGGCCCUACUCCCUAGCCUUUUCCAAGUGGGACAUGGAAGAGGCAGCCUGCUGCCUGGAUGCUGGUCUCCCCAGCAUCACUGUUCCCAUGGAGCUCAGGUCAGGC` is recorded as 0.373.
`AGAGACACCAGCCAGAGAAAACCCCCUCUAGAAGGAAUGUAUUUGUUGCUAAAUUUUGUAGCACUGUUUACAGUUUUCCUCCAUGUUAUUUAUGAAUUUUAUAUUCCGUG`: “RBNS enrichment (R)” 0.467.
`AGACUUUUGACACUUUUAAAAAACAAAAAAAGACAAGAGAGAUGAAAACGUUUGAUUAUUUUCUCAGUGUAUUUUUGUAAAAAAUAUAUAAAGGGGGUGUUAAUCGGUGU`: “RBNS enrichment (R)” 0.516.
`UUAUCUUUUGGGUCUGUCCUCUCUGUUGCCUUUUUACAGCCAACUUUUCUAGACCUGUUUUGCUUUUGUAACUUGAAGAUAUUUAUUCUGGGUUUUGUAGCAUUUUUAUU` — result for “RBNS enrichment (R)”: 1.38.
Under “RBNS enrichment (R)”, `CCUAAGCUAACCACACGUGUGUAUCUCAAGGGACUUAAAUUCAGCUGUCUGUAGUGAAUUCAAGUGGGAAAUUUUCAAAAGUUUCUCCUGCUGGAAAUAAGGUAUAAUUU` is recorded as 0.368.
For `CGGAUAUAAAAUAAACCACGGGCCCGCCAUGGCGUUAGCCCUUCCUUUUGCAGUUGCGUCUGGGAAGGGGCCCCGGACUCCCUCGAGAGAAUGUGCUAGAGACAGCCCCU`, “RBNS enrichment (R)” read 0.788.
`UUCCCGUUCUCCUGUGUCUACUAACAAGGACAUGGGGGUGGGCGGUGACCUCCGCAUCCCUCAGAGCUCAGAGGGUCCUCGCUGCCACCGGUCCCCCCCUAGCCCGUCAU`: “RBNS enrichment (R)” 0.319.
`AGACCAAGACAGAGCAAGCCAGUGAAGAACAUGAGCAGGAAACAGCUGCUCCUGAGCAUGAAGGAACCCACCCUAAGCCAGUCCUGACAGCUGACAUGCCUCACUCAGAG` — result for “RBNS enrichment (R)”: 2.01.
Under “RBNS enrichment (R)”, `AAACUUGCCCUUUCUGAAGGCAAGCCUAGAAUUGGGUCUUUUGUUGUCAUUGUUCCAAAUUUCCAGAAUAGAAUAUAGGACCAGUUUAGAUCCUGUAGUAAACAUGUCCC` is recorded as 0.3.
`UGGCAGUCCUGGUCCUUCCACUGUGCACCUGCGCGGAGGACGCGACCUCAGUUGUCCUGCCCUGUGGAAUGGGCUCAAGGUUCCUGAGACACCCGAUUCCUGCCCAAACA`: “RBNS enrichment (R)” 0.181.
`ACCUGUUAGGGAAUAUCUAUUGUCUUGAAGUCAGAGUAGCUCCCCAUUGUUGAGAUCAGUGGGCAUAUACCAAGCUCCACCCCCAGUGUCAGCUUUGUGCAAUUUGCCUU` — result for “RBNS enrichment (R)”: 0.673.
`AAAGCAAGUUAGAACGGGCUGGAUAGCCAAAGAGGCAGCCAUUCGGACCUAGGAAGUUGGGGUCUGUAGUAUGCCUGGAUUUUCUAUUAUUCAUGAGAUUUGUACAAACC`: “RBNS enrichment (R)” 1.22.

For quick reference, copied from above (series 2):
The E-score of `ACAAACGT` is reported as -0.139.
For `ATCTGTAC`, the E-score was -0.00911.
For `GGCGACAC`, the E-score was 0.332.
For `GACCATGC`, the E-score was 0.11.
`GAGGCCCC` has an E-score of -0.0413.
For `GGCACGCA`, the E-score was 0.118.
With `ATGTTCCA` the E-score was -0.146.
`TGATCGAA` gave an E-score of -0.116.
`AATAAATA` gave an E-score of -0.113.
`ACGGCGGC` gave an E-score of 0.463.
